Measured values collected from several papers.
Lines come from different studies, so protocols differ. “And” joins repeats or separate records; there may be more than shown. ± gives the spread as reported.

Structure (SMILES)	tested on	test	system	conditions	scale	quantity	value
CSc1cc(Oc2ccnc3[nH]c(=O)cnc23)ccc1NC(=O)Nc1cc(C(C)(C)C)nn1-c1ccccc1	patient-derived cell line	RPPA, refers to: GSK-3β pSer9	human	1 µM, 4 h	reference: DMSO	phospho/total ratio	0.41
CCn1cc(-c2cc(Cn3ccoc3=N)cc3c2CCN([C@@H](C)c2cc(OC)ccn2)C3=O)c(C(F)(F)F)n1	GSU	cell growth		120 h		EC50	35.6 nM
CC(C)n1ncc2c(C(=O)NCC3(C)CNC3)cc(C3CC3)nc21	coxsackievirus A16		RD	15 µM		cell protection	101% and 99.2%
O=C(/C=C/C=C/C=C/C1CCCCC1)NC1=C[C@@](O)(/C=C/C=C/C=C/C(=O)NC2=C(O)CCC2=O)[C@@H]2O[C@@H]2C1=O	hep3b217	cell growth, inhibitor, CellTiter-Glo luminescence		78 h	reference: day 0 cell count	GI50	17200 nM
Cn1cnc(C[C@H](N)C(=O)O)c1		binding, MIDAS equilibrium dialysis LC-MS	A2AR-BRIL thermostabilized	concentration not given	reference: no-protein control	log2 fold change	-0.103
O=P1(C2CCCCC2)CCCCC1	HaCaT	trypan blue		IC50, 72 h	reference: untreated	reduction of cell number	10 to 20%
CCn1cc(-c2cc(Cn3ccnc3)cc3c2CCN([C@H](c2cc(OC)ccn2)C2CC2)C3=O)c(C(F)(F)F)n1	DOHH-2	cell growth, inhibitor		120 h		EC50	20.5 nM
O=C(CO)[C@@H](O)[C@H](O)CO		binding, MIDAS equilibrium dialysis LC-MS	A2AR-BRIL thermostabilized	concentration not given	reference: no-protein control	log2 fold change	-0.254
COCC(=O)N1CCC[C@H](C(=O)NCc2nc(C3=CCN(C)CC3)cs2)C1	Plasmodium falciparum	SYBR Green growth	asexual blood-stage parasites, 3D7	72 h		EC50	> 5000 nM
Nc1nc2c(ncn2[C@@H]2O[C@H](COP(=O)(O)OP(=O)(O)O[C@H]3O[C@H](CO)[C@@H](O)[C@H](O)[C@@H]3O)[C@@H](O)[C@H]2O)c(=O)[nH]1		binding, MIDAS equilibrium dialysis LC-MS	A2AR-BRIL thermostabilized	concentration not given	reference: no-protein control	log2 fold change	-0.169
Nc1nc(-c2ccccc2)nc2[nH]nc(Nc3ccc(C(F)(F)F)cc3)c12	coxsackievirus B3		31-1-93, NMRI mice, CVB3 chronic myocarditis	oral, 100 mg/kg twice daily, day 13, dosed days 3 to 10, score scale 0 to 7	direction not given	clinical score	0.9
Nc1ccn([C@@H]2O[C@H](COP(=O)(O)OP(=O)(O)OP(=O)(O)O)[C@@H](O)[C@H]2O)c(=O)n1		binding, MIDAS equilibrium dialysis LC-MS	A2AR-BRIL thermostabilized	concentration not given	reference: no-protein control	log2 fold change	-0.494
Cn1cc(-c2ccc(-c3cncc(Cl)c3N3CCC4(CCNC4=O)CC3)cc2)cn1	COLO 205	microarray, refers to: STAMBPL1		concentration not given, 2 h, gene set AMSH-2	reference: untreated cells	fold change in expression	-1.04
CCONC(=O)N1CCC[C@H](C(=O)NCc2nc(-c3ccc(C#N)cc3)cs2)C1	Plasmodium falciparum	SYBR Green growth	asexual blood-stage parasites, 3D7	72 h		EC50	14 ± 2.6 nM
N#Cc1ccc2c(c1)[C@H]1CCCN(C(=O)c3ccc4[nH]cnc4c3)[C@H]1C2			T2DM patients with overweight or obesity, plasma	oral, 40 mg, day 15 (360 h), multiple dosing, mean		fasting plasma insulin	14.3 mU/L
COCC(=O)N1CCC[C@H](C(=O)NCc2cccc(-c3ccccc3)n2)C1	Plasmodium falciparum	SYBR Green growth	asexual blood-stage parasites, 3D7	72 h		EC50	1300 ± 320 nM
CC(=O)CC(=O)CCC(=O)O		binding, MIDAS equilibrium dialysis LC-MS	A2AR-BRIL thermostabilized	concentration not given	reference: no-protein control	log2 fold change	-0.571
NC(=O)c1cnc2[nH]ccc2c1N[C@@H]1[C@@H]2CC3C[C@H]1C[C@@](O)(C3)C2		flow cytometry	Japanese healthy men, blood	oral, 100 mg twice daily, 72 h after day 7 dose	reference: baseline	CD4+ effector memory change	0.18%
N[C@@H](CCCCN[C@@H](CCC(=O)O)C(=O)O)C(=O)O		binding, MIDAS equilibrium dialysis LC-MS	A2AR-BRIL thermostabilized	concentration not given	reference: no-protein control	log2 fold change	-0.254
O=C(O)CNC(=O)Cc1ccccc1			ventricular cardiomyocytes, C57BL/6 mouse	dose not given, 0.424 s		sarcomere length	1.72 µm
CCS(=O)(=O)c1nc(C2CC2)cc(C(F)(F)F)n1	transportin-1/2	FUS nuclear import, high content imaging	HeLa Kyoto reporter	1.58 µM, 2 h		cells with nuclear reporter	93.5% and 94.9%
CCN(CC)CCNC(=O)c1c(C)[nH]c(/C=C2\C(=O)Nc3ccc(F)cc32)c1C	CK1 (yeast)	kinase activity, inhibitor		0.3 µM		inhibition	46%
Cc1cc(Nc2ncc(Cl)c(Nc3ccccc3S(=O)(=O)C(C)C)n2)c(OC(C)C)cc1C1CCNCC1	CLB-BAR	LC-MS/MS phosphoproteomics, refers to: A2M phosphorylation		200 nM, 60 min	reference: untreated	log2 fold change	1
N[C@@H](CCC(=O)O)C(=O)O		binding, MIDAS equilibrium dialysis LC-MS	A2AR-BRIL thermostabilized	concentration not given	reference: no-protein control	log2 fold change	-0.103
OC(CCN1CCCCC1)(c1ccccc1)C1CC2C=CC1C2 (stereo not drawn)		resting-state EEG	healthy elderly humans	oral, 2 mg, eyes open, LS mean	reference: baseline	change, EEG Delta power, in Fz-Cz	20.3%
C[C@H](CCC(=O)O)[C@H]1CC[C@H]2[C@@H]3[C@H](O)C[C@@H]4C[C@H](O)CC[C@]4(C)[C@H]3C[C@H](O)[C@]12C		binding, MIDAS equilibrium dialysis LC-MS	A2AR-BRIL thermostabilized	concentration not given	reference: no-protein control	log2 fold change	10.8
COc1cnc2cccc(N3CCc4c(cc(Cn5ccnc5C)cc4-c4cn(C)nc4C(F)(F)F)C3=O)c2c1	LMSU	cell growth		120 h		EC50	> 30000 nM

Some of these lines once more:
Structure (SMILES)	tested on	test	system	conditions	scale	quantity	value
O=C(CO)[C@@H](O)[C@H](O)CO		binding, MIDAS equilibrium dialysis LC-MS	A2AR-BRIL thermostabilized	concentration not given	reference: no-protein control	log2 fold change	-0.254
COCC(=O)N1CCC[C@H](C(=O)NCc2nc(C3=CCN(C)CC3)cs2)C1	Plasmodium falciparum	SYBR Green growth	asexual blood-stage parasites, 3D7	72 h		EC50	> 5000 nM
